Experimental data pooled from the literature.
Protocols differ between the studies behind these lines. ± gives the spread as reported. Values after ≈ are worked out from the molar mass of the structure shown.
UniProt Q86Z02, sequence (whole entry, looked up): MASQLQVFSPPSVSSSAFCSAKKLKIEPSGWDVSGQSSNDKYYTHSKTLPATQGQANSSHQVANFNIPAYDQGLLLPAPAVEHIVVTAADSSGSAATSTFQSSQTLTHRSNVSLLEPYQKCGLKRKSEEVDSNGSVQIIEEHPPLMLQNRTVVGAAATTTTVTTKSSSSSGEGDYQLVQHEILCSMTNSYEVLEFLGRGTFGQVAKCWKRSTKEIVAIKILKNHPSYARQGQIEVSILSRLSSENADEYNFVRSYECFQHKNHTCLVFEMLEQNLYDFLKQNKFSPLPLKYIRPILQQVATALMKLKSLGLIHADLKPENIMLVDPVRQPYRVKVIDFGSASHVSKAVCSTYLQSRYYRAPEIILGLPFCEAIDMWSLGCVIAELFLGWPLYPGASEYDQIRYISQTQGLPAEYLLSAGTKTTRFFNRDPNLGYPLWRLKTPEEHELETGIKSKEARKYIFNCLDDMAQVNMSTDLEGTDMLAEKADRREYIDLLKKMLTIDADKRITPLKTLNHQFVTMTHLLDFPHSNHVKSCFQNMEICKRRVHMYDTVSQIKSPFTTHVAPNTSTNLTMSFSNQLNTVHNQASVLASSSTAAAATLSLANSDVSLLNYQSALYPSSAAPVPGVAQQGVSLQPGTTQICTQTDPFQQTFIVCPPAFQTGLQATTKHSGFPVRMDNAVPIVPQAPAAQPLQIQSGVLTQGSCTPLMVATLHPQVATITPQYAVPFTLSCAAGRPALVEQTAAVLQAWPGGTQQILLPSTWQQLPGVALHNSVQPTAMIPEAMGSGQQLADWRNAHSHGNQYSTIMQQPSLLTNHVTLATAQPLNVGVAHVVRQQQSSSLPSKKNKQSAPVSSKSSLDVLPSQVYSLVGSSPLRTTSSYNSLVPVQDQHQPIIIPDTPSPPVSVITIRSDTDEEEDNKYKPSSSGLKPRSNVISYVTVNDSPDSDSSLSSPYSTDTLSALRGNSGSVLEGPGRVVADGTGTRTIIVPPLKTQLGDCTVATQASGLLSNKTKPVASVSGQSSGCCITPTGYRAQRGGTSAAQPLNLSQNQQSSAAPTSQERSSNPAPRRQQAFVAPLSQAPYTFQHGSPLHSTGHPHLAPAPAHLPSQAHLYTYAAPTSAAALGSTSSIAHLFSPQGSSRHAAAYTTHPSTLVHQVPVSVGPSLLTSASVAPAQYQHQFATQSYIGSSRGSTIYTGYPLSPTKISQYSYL
UniProt P45880, sequence (whole entry, looked up): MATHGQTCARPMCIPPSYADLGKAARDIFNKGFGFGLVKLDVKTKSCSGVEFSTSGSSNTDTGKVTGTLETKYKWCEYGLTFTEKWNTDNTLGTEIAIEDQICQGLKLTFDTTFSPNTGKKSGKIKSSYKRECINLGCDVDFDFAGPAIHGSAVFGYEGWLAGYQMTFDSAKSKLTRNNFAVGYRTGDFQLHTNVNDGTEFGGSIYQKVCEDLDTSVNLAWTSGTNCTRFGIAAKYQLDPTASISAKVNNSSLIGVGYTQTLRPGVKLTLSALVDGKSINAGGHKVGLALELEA
UniProt P35408, sequence (whole entry, looked up): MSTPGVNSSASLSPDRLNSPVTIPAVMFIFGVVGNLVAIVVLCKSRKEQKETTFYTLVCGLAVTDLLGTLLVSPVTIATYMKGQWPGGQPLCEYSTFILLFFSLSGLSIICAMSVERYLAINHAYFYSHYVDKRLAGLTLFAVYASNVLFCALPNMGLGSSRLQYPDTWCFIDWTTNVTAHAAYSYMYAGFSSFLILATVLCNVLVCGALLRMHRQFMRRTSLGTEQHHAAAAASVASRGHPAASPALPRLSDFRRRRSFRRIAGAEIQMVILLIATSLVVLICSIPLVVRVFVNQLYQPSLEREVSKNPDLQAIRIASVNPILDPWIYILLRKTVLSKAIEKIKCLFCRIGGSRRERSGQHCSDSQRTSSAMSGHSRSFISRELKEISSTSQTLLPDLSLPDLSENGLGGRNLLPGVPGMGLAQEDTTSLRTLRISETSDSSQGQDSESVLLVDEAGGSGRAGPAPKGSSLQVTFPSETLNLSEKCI

Compound | target or system | test | system | setting | how to read | quantity | result
CO[C@H]1C[C@@H]2CC[C@@H](C)[C@@](O)(O2)C(=O)C(=O)N2CCCC[C@H]2C(=O)O[C@H]([C@H](C)C[C@@H]2CC[C@@H](OC(=O)NCCOCCOCCOCCOCCOCCOCCOCCOCCC(=O)N3CCc4cc(Cn5nc(-c6ccc7oc(N)nc7c6)c6c(N)ncnc65)ccc4C3)[C@H](OC)C2)C[C@@H](O)[C@H](C)/C=C(\C)[C@@H](O)[C@@H](OC)C(=O)[C@H](C)C[C@H](C)/C=C/C=C/C=C/1C |  |  | patients with advanced solid tumours | intravenous, 10 mg weekly, any grade |  | fatigue incidence | 62.5%
CCN(CC)C(=O)[C@@H]1C=C2c3cccc4[nH]cc(c34)C[C@H]2N(C)C1 |  | item: impaired concentration | healthy volunteers | dose not given, 0 to 12 h | relative to: placebo, direction not given | List of Complaints score | 9
CCCCOc1nc(N)c2c(n1)N(Cc1cccc(CN3CCCC3)c1)CC(=O)N2 |  |  | human | oral, 2 mg, grade 1 |  | headache incidence | 13.3%
C[C@@H](O)[C@@H](CO)NC(=O)[C@@H](CCCNC(=N)N)NC(=O)[C@@H]1CCCN1C(=O)[C@@H]1CSSC[C@H](NC(=O)[C@H](Cc2ccccc2)NC(=O)CN2CCN(CC(=O)O)CCN(CC(=O)O)CCN(CC(=O)O)CC2)C(=O)N[C@@H](Cc2ccc(O)cc2)C(=O)N[C@@H](Cc2ccccc2)C(=O)N[C@@H](CCC(N)=O)C(=O)N[C@@H](CC(N)=O)C(=O)N1 [gallium-68 labelled] |  |  | Wistar rat, blood | intravenous, 8 MBq, 60 min, group mean |  | tissue uptake | 1.07 %ID/g
COC[C@@H](NC(C)=O)C(=O)NCc1ccccc1 |  | fluorescence quenching | human healthy male, plasma | oral, 100 mg single |  | MRT(0-inf) | 17.5 h
O=C1c2c(O)c(=O)ccn2N([C@@H]2c3ccccc3SCc3c2ccc(F)c3F)[C@@H]2COCCN12 |  |  | BALB/c mice, plasma | oral, 0.5 mg/kg baloxavir marboxil, 10 h |  | plasma concentration | 0.299 ng/mL
CC[C@H](C)[C@H](N)C(=O)N[C@@H](CC(C)C)C(=O)NCC(=O)N[C@H](C(=O)N[C@H](C(=O)N[C@@H](CC(C)C)C(=O)NCC(=O)N[C@@H](CC(C)C)C(=O)N[C@@H](CC(C)C)C(=O)N[C@@H](CCCCN)C(=O)NCC(=O)N[C@@H](CC(C)C)C(N)=O)[C@@H](C)CC)[C@@H](C)O |  |  | mouse red blood cells |  |  | minimal haemolytic concentration | 10 µM
CC[C@H](C)[C@@H]1NC(=O)[C@@H]2CCCN2C(=O)[C@H](CC(C)C)NC(=O)[C@H](CC(C)C)NC(=O)CNC(=O)[C@@H](NC(=O)[C@@H](NC(=O)[C@H](CC(=O)O)NC(=O)CNC(=O)[C@@H](NC(=O)[C@H](C)NC(=O)CNC(=O)[C@H](CCCCN)NC(=O)[C@H](CC(C)C)NC(=O)[C@H](CC(C)C)NC(=O)[C@H](CCCCN)NC(=O)CNC(=O)[C@@H](NC(=O)[C@@H](N)CC(C)C)C(C)C)C(C)C)C(C)C)CSSC[C@@H](C(=O)O)NC1=O |  | RNA-seq, item: Adrb2 | mouse, traumatic brain injury model, frontal cortex and hippocampus | dose not given | relative to: TBI alone | log2 fold change | -1.83
Cc1ncc2n1-c1ccc(Cl)cc1C(c1ccccc1F)=NC2 |  |  | human | oral, dose not given |  | subjects with TEAE | 17.9%
COc1cc(Nc2ncc(F)c(Nc3ccc4c(n3)NC(=O)C(C)(C)O4)n2)cc(OC)c1OC | PTGER4 (Homo sapiens, UniProt P35408) |  |  |  |  | IC50 | > 10 µM
CCCCCCCCCCC(=O)O[C@H]1CC[C@H]2[C@@H]3CCC4=CC(=O)CC[C@]4(C)[C@H]3CC[C@]12C |  |  | human male serum | 500 ng/mL, NaF 100 mg/mL, baseline testosterone 544 ng/dL |  | testosterone level | 540 ng/dL
C=C(C)[C@@H]1CCC(C)=C[C@H]1c1c(O)cc(CCCCC)cc1O |  |  | human | 750 mg, trial 17075, with: fluconazole 400 mg |  | subjects with Nasopharyngitis | 0%
C[C@@H](c1ncncc1F)[C@](O)(Cn1cncn1)c1ccc(F)cc1F |  |  | human | oral, 400 mg |  | TEAE leading to discontinuation | 0%
CCCCCn1cc(C(=O)Nc2cccc3ccccc23)c2ccccc21 |  |  | male human liver microsomes | 1 µM |  | hepatic clearance | 18.9 mL/min/kg
OCc1ncc2n1-c1ccc(Cl)cc1C(c1ccccc1F)=NC2 | CYP3A4 (human) |  | human, plasma | oral, 2 mg midazolam, Day 14, with: encorafenib at steady state | relative to: Day -7 | geometric LS mean ratio of Cmax | 1.25
OCc1ncc2n1-c1ccc(Cl)cc1C(c1ccccc1F)=NC2 |  |  | human, plasma | oral, 7.5 mg of midazolam, day 26, geometric mean, no amenamevir |  | Cmax | 14.2 ng/mL
O=C(C1CCCCC1)N1CCN(S(=O)(=O)c2cccc3cnccc23)CC1 |  |  | human liver microsomes | 5 µM, with: NADPH |  | CLint | 642 µL/min/mg
COc1ccc2c(c1)[C@]13CCCC[C@@H]1[C@H](C2)N(C)CC3 |  |  | human | oral, dose not given |  | subjects with serious TEAE | 0%
CCCCCCC#Cc1cncc(-c2nnc(SCc3cc([N+](=O)[O-])cc([N+](=O)[O-])c3)n2C)c1 |  |  | mouse liver microsomes |  |  | CLint | 287 µL/min/mg

Compound | target or system | test | system | setting | how to read | quantity | result
C[C@]12CC[C@H]3[C@@H](CCC4=CC(=O)CC[C@@]43C)[C@@H]1CC[C@@H]2O |  | lipid PAMPA | PBS | 10 µM, 16 h, pH 7.4, 25 °C |  | permeability (Pe) | 26.9 ×10⁻⁶ cm/s
OCc1ncc2n1-c1ccc(Cl)cc1C(c1ccccc1F)=NC2 |  |  | humans, plasma | 3 mg of midazolam, with: isavuconazole |  | AUC(0-last) | 17.5 ng·h/mL
COc1cccc(-c2n[nH]c(SCc3ccccn3)n2)c1OC | Salmonella typhimurium | Ames test, preincubation | TA100 | 0.50 mg/plate, with rat liver S9 |  | revertant colonies per plate | 141
Cc1ncc2n1-c1ccc(Cl)cc1C(c1ccccc1F)=NC2 |  |  | human, human liver microsomes 0.5 mg/mL | 5 µM, 24 h, pH 7.4 |  | fu plasma over fu microsomes | 0.053
COc1ccc(N2C(=O)N(c3c(C)cccc3Cl)Cc3cnc(Nc4ccc(C5CCN(C)CC5)cc4OC)nc32)nc1 | HIPK1 (Homo sapiens, UniProt Q86Z02) | kinase activity |  | 0.5 µM |  | inhibition | 4.54%
C#Cc1ccc2c(c1)C(c1ccccn1)=NCc1c(-c3cnco3)ncn1-2 |  | thermodynamic equilibrium, UV | methanol | 24 h, 25 °C |  | solubility | 4290 µg/mL (≈ 12.2 mM)
CCCCCn1nc(C(=O)Nc2cccc3ccccc23)c2ccccc21 |  |  | rat, plasma | intraperitoneal, 3 mg/kg, mean of 4 |  | apparent clearance (CL/F) | 192 mL/min/kg
C[C@H]1CN(c2n[nH]c3nc(N[C@H]4CC[C@H](NS(=O)(=O)CCC(F)(F)F)CC4)ncc23)CCO1 | Non-selective voltage-gated ion channel VDAC2 (Homo sapiens, UniProt P45880) | Kinobeads competition, item: VDAC2 |  | 0.032 µM, unit not given | relative to: vehicle | remaining binding | 1.02
CC(=O)N1CCC(C(=O)N2CCN3C(=O)c4cc(-c5ccccc5)ccc4NC(=O)C3C2)CC1 (stereo not shown) | Salmonella typhimurium |  | TA1537 | 5.0 µg/plate |  | revertants per plate | 10.5
Cc1ncc2n1-c1ccc(Cl)cc1C(c1ccccc1F)=NC2 |  |  | EpiIntestinal microtissues | 10 µM, pH 6.5 |  | CLint | 0.28 µL/min/mg
CN1C(=O)CN=C(c2ccccc2)c2cc(Cl)ccc21 |  | empty perfusion, no placenta | maternal circuit tubing | 5 µM, 360 min | relative to: initial amount | loss by adsorption | 44.4 ± 5.6%
CC[C@H](C)[C@H](NC(=O)[C@H](Cc1ccccc1)NC(=O)[C@H](CCC(=O)O)NC(=O)[C@H](CCCNC(=N)N)NC(=O)[C@H](C)NC(=O)[C@H](C)NC(=O)[C@H](CCC(N)=O)NC(=O)[C@H](CCC(=O)O)NC(=O)[C@H](CCC(=O)O)NC(=O)[C@H](CC(C)C)NC(=O)[C@H](Cc1ccc(O)cc1)NC(=O)[C@H](CO)NC(=O)[C@H](CO)NC(=O)[C@@H](NC(=O)[C@H](CC(=O)O)NC(=O)[C@H](CO)NC(=O)[C@@H](NC(=O)[C@H](Cc1ccccc1)NC(=O)[C@@H](NC(=O)CNC(=O)[C@H](CCC(=O)O)NC(=O)[C@H](C)NC(=O)CCc1c[nH]cn1)[C@@H](C)O)[C@@H](C)O)C(C)C)C(=O)N[C@@H](C)C(=O)N[C@@H](Cc1c[nH]c2ccccc12)C(=O)N[C@@H](CC(C)C)C(=O)N[C@H](C(=O)N[C@@H](CCCNC(=N)N)C(=O)NCC(=O)N[C@@H](CCCNC(=N)N)C(=O)N[C@@H](CCCCNC(=O)COCCOCCNC(=O)COCCOCCNC(=O)CC[C@H](NC(=O)CCCCCCCCCCCCCCCCC(=O)O)C(=O)O)C(=O)NCC(=O)NCC(=O)N[C@@H](CO)C(=O)N[C@@H](CCCCNc1c(NCCCCCN(O)C(=O)CCC(=O)NCCCCCN(O)C(=O)CCC(=O)NCCCCCN(O)C(C)=O)c(=O)c1=O)C(=O)O)C(C)C [zirconium-89 labelled] |  |  | rat, intestine content | intravenous, 3 nmol/kg, 72 h |  | tissue uptake | 0.06 %ID/g
C[C@]12CC[C@H]3[C@@H](CCC4=CC(=O)CC[C@@]43C)[C@@H]1CC[C@@H]2O |  |  | mouse liver microsomes | 1 µM |  | hepatic clearance | 85.9 mL/min/kg
COc1cc2c(Oc3ccc4[nH]c(C)cc4c3F)ccnc2cc1OCC1(N)CC1 |  | item: grade 1 or 2 influenza-like symptoms | paediatric high-risk refractory sarcoma | whole group |  | incidence of adverse event | 8.8%
CC1=C(C)C(=O)C(CCCCC#CCCCC#CCO)=C(C)C1=O | Plasmodium falciparum |  | W2 |  |  | IC50 | 3.98 µM
Cc1ncc2n1-c1ccc(Cl)cc1C(c1ccccc1F)=NC2 |  |  | healthy volunteers, plasma | oral, 5 mg single dose, day 1, given alone |  | AUC(0-inf) | 101 ng·h/mL
Cc1cc(C(=O)NC(C)(C)COc2cccc3c2C(N)=NS(=O)(=O)N3)cc(C)n1 | Salmonella typhimurium | Ames test, initial | TA98 | 15.0 µg/plate | relative to: solvent control | revertant ratio | 1.1
CC(C)N(CCc1c[nH]c2cccc(O)c12)C(C)C |  |  | male cynomolgus monkey, plasma | intravenous, 1 mg/kg |  | half-life | 0.63 h

For quick reference, copied from above:
Compound | target or system | test | system | setting | how to read | quantity | result
O=C1c2c(O)c(=O)ccn2N([C@@H]2c3ccccc3SCc3c2ccc(F)c3F)[C@@H]2COCCN12 |  |  | BALB/c mice, plasma | oral, 0.5 mg/kg baloxavir marboxil, 10 h |  | plasma concentration | 0.299 ng/mL
CC[C@H](C)[C@H](N)C(=O)N[C@@H](CC(C)C)C(=O)NCC(=O)N[C@H](C(=O)N[C@H](C(=O)N[C@@H](CC(C)C)C(=O)NCC(=O)N[C@@H](CC(C)C)C(=O)N[C@@H](CC(C)C)C(=O)N[C@@H](CCCCN)C(=O)NCC(=O)N[C@@H](CC(C)C)C(N)=O)[C@@H](C)CC)[C@@H](C)O |  |  | mouse red blood cells |  |  | minimal haemolytic concentration | 10 µM
CC[C@H](C)[C@@H]1NC(=O)[C@@H]2CCCN2C(=O)[C@H](CC(C)C)NC(=O)[C@H](CC(C)C)NC(=O)CNC(=O)[C@@H](NC(=O)[C@@H](NC(=O)[C@H](CC(=O)O)NC(=O)CNC(=O)[C@@H](NC(=O)[C@H](C)NC(=O)CNC(=O)[C@H](CCCCN)NC(=O)[C@H](CC(C)C)NC(=O)[C@H](CC(C)C)NC(=O)[C@H](CCCCN)NC(=O)CNC(=O)[C@@H](NC(=O)[C@@H](N)CC(C)C)C(C)C)C(C)C)C(C)C)CSSC[C@@H](C(=O)O)NC1=O |  | RNA-seq, item: Adrb2 | mouse, traumatic brain injury model, frontal cortex and hippocampus | dose not given | relative to: TBI alone | log2 fold change | -1.83
Cc1ncc2n1-c1ccc(Cl)cc1C(c1ccccc1F)=NC2 |  |  | human | oral, dose not given |  | subjects with TEAE | 17.9%
COc1cc(Nc2ncc(F)c(Nc3ccc4c(n3)NC(=O)C(C)(C)O4)n2)cc(OC)c1OC | PTGER4 (Homo sapiens, UniProt P35408) |  |  |  |  | IC50 | > 10 µM
